Measurements from different studies.
Compare with care: the assays were run in different laboratories. Numbers after ± are the reported error.
B1: susA (Bacteroides thetaiotaomicron, UniProt Q8A1G0); chain TSTIKKVAPTFWWAGMKNPELQILLYGDRISSADVSLSADNITLQEVVKQENPNYLVLYLDLSKAAPQNFDIILKQGKKQTKIPYELKQRRPNASAVEGFDSSDVLYLIMPDRFANGNPSNDIIPGMLEGNVDRNEPFARHGGDLKGIENHLDYIADLGVTSIWLNPIQENDMKEGSYHGYAITDYYQVDRRFGSNEEFRKLTQEANAKGLKVVMDMIFNHCGSDNYLFKDMPSKDWFNFEGNYVQTSFKTATQMDPYASDYEKKIAIDGWFTLTMPDFNQRNRHVATYLIQSSIWWIEYAGINGIRQDTHPYADFDMMARWCKAVNEEYPKFNIVGETWLGNNVLISYWQKDSRLAYPKNSNLPTVMDFPLMEEMNKAFDEETTEWNGGLFRLYEYLSQDIVYSHPMSLLTFLDNHDTSRFYRSEADTKNLDRYKQALTFLLTTRGIPQIYYGTEILMAADKANGDGLLRCDFPGGWPNDTKNCFDAANRTPQQNEAFSFMQKLLQWRKGNEVIAKGQLKHFAPNKGVYVYERKYGDKSVVVFLNGNDREQTIDLVPYQEILPASSAFDLLTEKKVELRNELTLPSREIYLLSF
B2: enzyme (Listeria monocytogenes, UniProt Q8Y7B6); chain MSFDVLTINPGSTSTKLAVYQGDKVLFEETVRHTMQELADFNNVQEQFDFRWQVLRRVMDAHGYDVKKLQAVVGRGGLLRPVAGGTYMVTEKMIDDLKENKYGEHASNLGAMLAKKLADELTIPSFIVDPVVVDEMQEIARISGNAFVTRKSIFHALNHKAAGRKIAKELGKDYEKMNFVIAHLGGGISVAAHRQGKAVDVNNALDGDGPFSPERSGSLPMNDFLEACFSGKWTKRELHELIVGRGGMISYLGTNSMLEVEAKVQAGEEKAIEAFDAMAYQVSKEIGACSVVLQGKVDAIILTGGLARSELFTSKIIEQTNWITSVIIEPGEDELEALNSGVQRVLAGLEKEKEY
B3: enzyme (Bacteroides thetaiotaomicron, UniProt Q8A947); chain MIKNIVFDFGGVIVDIDRDKAVQAFIKLGLADADTRLDKYHQTGIFQELEEGKLSADEFRKQLGDLCGRELTMEETKQAWLGFFNEVDLRKLDYILGLRKSYHVYLLSNTNPFVMSWACSPEFSSEGKPLNDYCDKLYLSYQLGHTKPAPEIFDFMIKDSHVIPSETLFVDDGSSNIHIGKELGFETFQPENGADWRQELTVILNS
B4: HNRNPA1 186-320 low-complexity domain; chain GSMASASSSQRGRSGSGNFGGGRGGGFGGNDNFGRGGNFSGRGGFGGSRGGGGYGGSGDGYNGFGNDGSNFGGGGSYNDFGNYNNQSSNFGPMKGGNFGGRSSGPYGGGGQYFAKPRNQGGYGGSSSSSSYGSGRRF
B5: DMGDH H109R (Homo sapiens, UniProt Q9UI17); chain ETVIIGGGCVGVSLAYHLAKAGMKDVVLLEKSELTAGSTWHAAGLTTYFHPGINLKKIRYDSIKLYEKLEEETGQVVGFHQPGSIRLATTPVRVDEFKYQMTRTGWHATEQYLIEPEKIQEMFPLLNMNKVLAGLYNPGDGHIDPYSLTMALAAGARKCGALLKYPAPVTSLKARSDGTWDVETPQGSMRANRIVNAAGFWAREVGKMIGLEHPLIPVQHQYVVTSTISEVKALKRELPVLRDLEGSYYLRQERDGLLFGPYESQEKMKVQDSWVTNGVPPGFGKELFESDLDRIMEHIKAAMEMVPVLKKADIINVVNGPITYSPDILPMVGPHQGVRNYWVAIGFGYGIIHAGGVGKYLSDWILHGEPPFDLIELDPNRYGKWTTTQYTEAKARESYGFNNIVGYPKEERFAGRPTQRVSGLYQRLESKCSMGFHAGWEQPHWFYKPGQDTQYRPSFRRTNWFEPVGSEYKQVMQRVAVTDLSPFGKFNIKGQDSIRLLDHLFANVIPKVGFTNISHMLTPKGRVYAELTVSHQSPGEFLLITGSGSELHDLRWIEEEAVKGGYDVEIKNITDELGVLGVAGPQARKVLQKLTSEDLSDDVFKFLQTKSLKVSNIPVTAIRISYTGELGWELYHRREDSVALYDAIMNAGQEEGIDNFGTYAMNALRLEKAFRAWGLEMNCDTNPLEAGLEYFVKLNKPADFIGKQALKQIKAKGLKRRLVCLTLATDDVDPEGNESIWYNGKVVGNTTSGSYSYSIQKSLAFAYVPVQLSEVGQQVEVELLGKNYPAVIIQEPLVLTEPTRNRLQKKGGKDKT
B6: susB (Bacteroides thetaiotaomicron, UniProt G8JZS4); chain QQKLTSPDNNLVMTFQVDSKGAPTYELTYKNKVVIKPSTLGLELKKEDNTRTDFDWVDRRDLTKLDSKTNLYDGFEVKDTQTATFDETWQPVWGEEKEIRNHYNELAVTLYQPMNDRSIVIRFRLFNDGLGFRYEFPQQKSLNYFVIKEEHSQFGMNGDHIAFWIPGDYDTQEYDYTISRLSEIRGLMKEAITPNSSQTPFSQTGVQTALMMKTDDGLYINLHEAALVDYSCMHLNLDDKNMVFESWLTPDAKGDKGYMQTPCNTPWRTIIVSDDARNILASRITLNLNEPCKIADAASWVKPVKYIGVWWDMITGKGSWAYTDELTSVKLGETDYSKTKPNGKHSANTANVKRYIDFAAAHGFDAVLVEGWNEGWEDWFGNSKDYVFDFVTPYPDFDVKEIHRYAARKGIKMMMHHETSASVRNYERHMDKAYQFMADNGYNSVKSGYVGNIIPRGEHHYGQWMNNHYLYAVKKAADYKIMVNAHEATRPTGICRTYPNLIGNESARGTEYESFGGNKVYHTTILPFTRLVGGPMDYTPGIFETHCNKMNPANNSQVRSTIARQLALYVTMYSPLQMAADIPENYERFMDAFQFIKDVALDWDETNYLEAEPGEYITIARKAKDTDDWYVGCTAGENGHTSKLVFDFLTPGKQYIATVYADAKDADWKENPQAYTIKKGILTNKSKLNLHAANGGGYAISIKEVKDKSEAKGLKRL
B7: protein (Bacteroides thetaiotaomicron, UniProt Q8A711); chain MKNTYIIGEIGQNHNGSVDLAKLIIELISRPVHEDVFGMDFMPMNAVKMTKRDLSEELAVSQMNQIYDNPNSFGRTYGEHRAFLELDDQAHFEIYKYAKSLGLDFIETLCAKGCLSLLKLFTPDRLKVASRDLTNLPLLEALAETHIPIILSTGMAGQRELDNALDVITRYHSNIAILHCVSQYPTHPNNLNLRTITYLKKHYNKFEIGFSDHTIGISAATAAVAMGAEIIEKHVTIDRHMKGTDQLGSLGPDGVNRMIRDIRIAECWLGTEDLYIEKGVEKSKIKLERSIATRKYIPAGSIIQESDIHLLSPGDGYKWIDKKNVIGHFAKQDISANEIIYPDFIE
UniProt Q5W0Z9, sequence (whole entry, looked up): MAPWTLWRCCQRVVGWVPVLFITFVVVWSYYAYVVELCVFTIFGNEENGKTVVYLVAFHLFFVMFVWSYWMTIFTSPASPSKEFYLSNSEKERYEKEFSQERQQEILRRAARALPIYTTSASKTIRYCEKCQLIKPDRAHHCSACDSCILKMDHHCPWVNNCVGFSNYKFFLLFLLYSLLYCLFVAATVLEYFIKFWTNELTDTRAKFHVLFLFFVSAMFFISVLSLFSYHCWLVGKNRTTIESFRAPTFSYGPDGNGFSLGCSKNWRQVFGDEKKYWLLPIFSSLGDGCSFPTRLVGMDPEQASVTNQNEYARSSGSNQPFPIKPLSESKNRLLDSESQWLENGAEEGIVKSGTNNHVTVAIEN
UniProt P13501, sequence (whole entry, looked up): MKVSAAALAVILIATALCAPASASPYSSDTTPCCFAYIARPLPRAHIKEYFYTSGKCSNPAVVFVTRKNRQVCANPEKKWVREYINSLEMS

Molecule | target or system | assay | test system | setting | scale | endpoint | result
HY6-F9 chimeric IgG1 T307Q/Q311V/A378V (Homo sapiens) | FCGRT/B2M FcRn (Homo sapiens) | BLI | – | – | – | Kd | 1.97 ± 0.04 nM
GluA1/TARP γ-8 fusion | GluA2/TARP γ-8 (x) | patch clamp | HEK293T | together with: philanthotoxin | relative to: glutamate current, higher = greater efficacy | kainate efficacy | 48.2%
B1 (susA) | O=[N+]([O-])c1ccc(O[C@H]2O[C@H](CO)[C@@H](O[C@H]3O[C@H](CO)[C@@H](O[C@H]4O[C@H](CO)[C@@H](O[C@H]5O[C@H](CO)[C@@H](O[C@H]6O[C@H](CO)[C@@H](O[C@H]7O[C@H](CO)[C@@H](O)[C@H](O)[C@H]7O)[C@H](O)[C@H]6O)[C@H](O)[C@H]5O)[C@H](O)[C@H]4O)[C@H](O)[C@H]3O)[C@H](O)[C@H]2O)cc1 | steady-state kinetics | – | pH 7 | – | kcat/Km | 120000 M⁻¹ s⁻¹
B2 (enzyme) | CCC(CC)C(=O)O | steady-state kinetics | – | pH 7.5, 37 °C | – | kcat/Km | 6.67 M⁻¹ s⁻¹
CCL5 mature (UniProt P13501) | CCR5 (Homo sapiens, UniProt P51681) | calcium mobilization, agonist | HOS-CCR5 | Gqi5 transfected | – | EC50 | 155 nM
B3 (enzyme) | Nc1c(NC[C@H](O)[C@H](O)[C@H](O)COP(=O)(O)O)[nH]c(=O)[nH]c1=O | steady-state kinetics | – | pH 7.5, 25 °C | – | kcat | 0.016 ± 0.001 s⁻¹
ZDHHC20 (Homo sapiens, UniProt Q5W0Z9) | CCCCCCCCCCCCCCCC(=O)SCCNC(=O)CCNC(=O)[C@H](O)C(C)(C)COP(=O)(O)OP(=O)(O)OC[C@H]1O[C@@H](n2cnc3c(N)ncnc32)[C@H](O)[C@@H]1OP(=O)(O)O | steady-state kinetics | – | pH 7.4, 30 °C | – | Km | 2.53 µM
enzyme (Bacteroides thetaiotaomicron, UniProt Q89YZ9) | O=[N+]([O-])c1ccc(O[C@H]2O[C@H](CO)[C@@H](O)[C@H](O)[C@H]2O)cc1 | steady-state kinetics | – | pH 6.6 | – | kcat | 48.6 ± 2.5 s⁻¹
B4 | itself | centrifugation, DIC microscopy | – | – | – | binding | binds
B5 (DMGDH H109R) | CN(C)CC(=O)O | steady-state kinetics | – | pH 7.5, 25 °C, single Km, mutant, no THF, together with: ferricenium hexafluorophosphate 200 µmol/L | – | kcat | 0.01 ± 0.00917 s⁻¹
B6 (susB) | O=[N+]([O-])c1ccc(O[C@H]2O[C@H](CO)[C@@H](O)[C@H](O)[C@H]2O)cc1 | steady-state kinetics | – | pH 6.6 | – | kcat/Km | 269000 M⁻¹ s⁻¹
B7 (protein) | C=C(OP(=O)(O)O)C(=O)O | steady-state kinetics | – | pH 7.5, 25 °C, together with: mannose 6-phosphate 3 mM | – | Km | 110 µM
HY6-F9 chimeric IgG1 L309D/Q311H/N434S (Homo sapiens) | FCGRT/B2M FcRn (Homo sapiens) | BLI | – | – | – | Kd | 3.63 ± 0.1 nM

Excerpt of the above:
Molecule | target or system | assay | test system | setting | scale | endpoint | result
B2 (enzyme) | CCC(CC)C(=O)O | steady-state kinetics | – | pH 7.5, 37 °C | – | kcat/Km | 6.67 M⁻¹ s⁻¹
